{"data": "Experimental data of several laboratories", "note": "Protocols differ between the studies behind these lines. “And” joins repeats or separate records; there may be more than shown. Numbers after ± are the reported error."}
{"Compound": "CNC(=O)CCN(Cc1ccc(C(F)F)cc1)C(=O)c1cc2c(OC)ccc(-c3ccc(=O)n(C)c3)c2s1", "cell line": "murine AML cells", "assay": "BRD4 chromatin occupancy, ChIP-seq, refers to: BRD4 at Irf2bp2 locus", "conditions": "concentration not given, chr8:129222581-129232059", "scale": "baseline: DMSO, higher = more occupancy", "quantity": "BRD4 ChIP-seq tag count", "value": "50.1 a.u."}
{"Compound": "CC(C)(C)n1cc(CN(Cc2cn(CC(=O)O)nn2)Cc2cn(C(C)(C)C)nn2)nn1", "cell line": "OVCAR-5, HPG-labelled", "assay": "live-cell CuAAC reaction, LC-ESI-MS/MS", "test system": "cytosolic proteins", "conditions": "concentration not given, added: NEM 100 µM, 10 min pretreatment", "quantity": "amount of CuAAC product", "value": "2.22 pg/µg protein and 2.28 pg/µg protein and 1.75 pg/µg protein"}
{"Compound": "NC(Cc1ccccc1)C(=O)N1CC(=Cc2ccc(Cl)c(Cl)c2)C(=O)C(=Cc2ccc(Cl)c(Cl)c2)C1 (stereo not drawn)", "cell line": "BRD4-HiBiT cells", "assay": "BRD4 degradation rescue, inhibitor", "conditions": "24 h, 50% degradation rescued, added: dBET6 500 nM", "quantity": "EC50", "value": "0.161 µM"}
{"Compound": "O=C1Nc2ccccc2C1(c1c[nH]c2ccccc12)c1c[nH]c2ccccc12", "cell line": "human monocytes", "conditions": "5 µM", "scale": "baseline: DMSO", "quantity": "IL-1β induction", "value": "increased"}
{"Compound": "O=C(O)C1OC(Oc2c(-c3ccc(O)cc3)oc3cc(O)ccc3c2=O)C(O)C(O)C1O (stereo not drawn)", "cell line": "MDCKII-UGT1A1/MRP2 cells", "assay": "glucuronide efflux, substrate", "quantity": "Jmax", "value": "4.8 ± 1.4 pmol/mg/min"}
{"Compound": "Cn1c(-c2ccc(F)cc2)n[nH]c1=S", "cell line": "C2C12 CELF1-overexpressing cells", "assay": "myogenic differentiation, MF20 immunostaining", "conditions": "10 µM, day 6", "quantity": "myotube area", "value": "increased"}
{"Compound": "Cc1cc(Cl)cc(-c2ccnc3cc(CN4C(=O)C5C(C4=O)C5(C)C)sc23)c1C[C@@H]1CNCCO1 (stereo partly drawn)", "cell line": "CHP-212 parental (wild-type USP7)", "assay": "annexin V-PI flow cytometry", "conditions": "1 µM, 48 h", "quantity": "early apoptotic cells (annexin V+/PI-)", "value": "32.2% and 23.7% and 26.6%"}
{"Compound": "CN1CCCNC(=O)c2cccc(c2)C(=O)NCCCN(C)CCCNc2cccc3c2C(=O)c2cccc(c2C3=O)NCCC1", "cell line": "SAS", "assay": "RNA-Seq, refers to: CBX5 mRNA", "conditions": "1 µM, 6 h", "scale": "baseline: untreated cells", "quantity": "log2 fold change", "value": 0.637}
{"Compound": "C#CCCCC(O)/C=C/C(=O)NC1(c2ccc(-c3nc4ccn5c(=O)[nH]nc5c4cc3-c3ccccc3)cc2)CCC1 (stereo not drawn)", "cell line": "MDA-MB-468", "assay": "flow cytometry PI", "conditions": "EC60, 72 h", "quantity": "sub-G0 cells", "value": "1.3%"}
{"Compound": "O=C(N1CCCC1)n1cc(-c2ccc(-c3ccccc3)cc2)nn1", "cell line": "mouse T cells", "assay": "N-terminal labelling proteomics, refers to: LARP1 N-terminal peptides", "conditions": "0.001 µM, 6 h", "scale": "baseline: DMSO", "quantity": "SILAC ratio", "value": 1.21}
{"Compound": "CC(C)c1ccc(N(C)c2ccc3c(c2)OCC[C@H]3CNc2cnccc2C(=O)O)cc1", "cell line": "HSC-3", "assay": "cell viability", "conditions": "7 days", "quantity": "IC50", "value": "0.0603 µM"}
{"Compound": "Cc1ncsc1-c1ccc(C(C)NC(=O)C2CC(O)CN2C(=O)C(NC(=O)CCCCCCCCCCN2CCCC(Nc3ncc(Cl)c(Nc4ccccc4S(=O)(=O)C(C)C)n3)C2)C(C)(C)C)cc1 (stereo not drawn)", "cell line": "22Rv1", "assay": "RNA-seq, refers to: TTC23 mRNA", "conditions": "concentration not given", "scale": "baseline: DMSO", "quantity": "log2 fold change", "value": -1}
{"Compound": "COc1ccc2c(c1)c(CC(=O)[Se]CC(=O)Nc1cccc(C(F)(F)F)c1)c(C)n2C(=O)c1ccc(Cl)cc1", "cell line": "NCI60 colon subpanel", "assay": "NCI60 five-dose screen", "quantity": "GI50", "value": "5.65 µM"}
{"Compound": "N#Cc1cccc(/C=C/C(=O)c2ccc(O)cc2)c1", "cell line": "U-87 MG", "assay": "refers to: GPR137C", "conditions": "concentration not given", "scale": "baseline: untreated", "quantity": "fold change", "value": 29.7}
{"Compound": "O=C(O)C1OC(Oc2cccc(-c3oc4ccccc4c(=O)c3O)c2)C(O)C(O)C1O (stereo not drawn)", "cell line": "MDCKII-UGT1A1/MRP2 cells", "assay": "glucuronide efflux, substrate", "quantity": "Jmax", "value": "24 ± 9.7 pmol/mg/min"}
{"Compound": "O=C(C[Se]C(=O)c1cc2ccccc2s1)Nc1cccc(C(F)(F)F)c1", "cell line": "NCI60 colon subpanel", "assay": "NCI60 five-dose screen", "quantity": "mean TGI", "value": "7.06 µM"}
{"Compound": "Cn1c(=O)n(C2CCC(=O)NC2=O)c2ccc(C3CCN(CC(=O)Nc4cccc(CS(=O)(=O)N5CC[C@H](Nc6cccc(-c7sc(C(=O)O)c(OCC(=O)O)c7Cl)c6)CC5(C)C)c4)CC3)cc21 (stereo partly drawn)", "cell line": "B16-F10", "assay": "HTRF, refers to: phospho-STAT1 Tyr701", "conditions": "1.1 µM, added: IFN-γ", "scale": "baseline: min-max normalised", "quantity": "pSTAT1 level", "value": "100% and 87.4% and 91.4% and 88.1% and 87.1% and 90.5%"}
{"Compound": "CN(C)c1ccc(-n2cc(COC(=O)[C@@]3(C)C=C(C(=O)OC(C)(C)C)C(=O)CC3)nn2)cc1", "cell line": "HeLa", "assay": "quantitative western blot", "conditions": "concentration not given, 7 (unit not given), added: EGF", "quantity": "pERK/ERK ratio", "value": 0.449}
{"Compound": "CCn1nc(Cl)c2c1-c1cnc(N)c(c1)O[C@H](C)c1cc(F)ccc1-c1nn(C)cc1C2", "cell line": "Ba/F3 EML4-ALK variant 1 L1196Q", "assay": "cell viability", "quantity": "Emax", "value": "99.9%"}
{"Compound": "COc1cc([C@@H]2O[C@@H](c3cc(OC)c(O[C@@H]4O[C@H](CO)[C@@H](O)[C@H](O)[C@H]4O)c(OC)c3)[C@H](CO)[C@H]2CO)cc(OC)c1O", "cell line": "3T3-L1 pre-adipocytes", "conditions": "5 to 20 µM, 48 h", "quantity": "glycerol release", "value": "increased"}
{"Compound": "Cn1ncc(-c2ccc3c(=O)[nH]nc(CN)c3c2)c1-c1c(F)c(Cl)cc(OC2CC2)c1C#N", "cell line": "LN-18", "assay": "cell viability, inhibitor, CellTiter-Glo", "conditions": "120 h, baseline-subtracted", "quantity": "IC50", "value": "0.02 µM"}
{"Compound": "CCOc1cncc(-c2ccc(NC(=O)C3(c4ccnc(NS(=O)(=O)C5CC5)n4)CCOCC3)nc2)n1", "cell line": "Fu97", "assay": "cell proliferation, CellTiter-Glo", "conditions": "72 h, Gastric cancer", "quantity": "IC50", "value": "10 µM"}
{"Compound": "CNS(=O)(=O)Nc1nccc(Cc2c(C)c3ccc(Oc4ncccc4F)cc3oc2=O)c1F", "cell line": "H9", "assay": "cell viability", "conditions": "7 days", "quantity": "IC50", "value": "> 1 µM"}
{"Compound": "CO[C@@H]1[C@@H](OC(N)=O)[C@@H](O)[C@H](Oc2ccc3c(O)c(NC(=O)c4ccc(O)c(CC=C(C)C)c4)c(=O)oc3c2C)OC1(C)C", "cell line": "DLD-1 parental", "conditions": "250 µM, replicate 1", "quantity": "colony count", "value": 0.1}
{"Compound": "CC(C)n1nc(C(F)F)cc1C(=O)Nc1ccc([C@H]2[C@@H](O)CCCc3cncn32)c(-c2ccccc2)c1", "cell line": "BRD4-HiBiT cells", "assay": "BRD4 degradation rescue, inhibitor", "conditions": "4 h, added: dBET6 500 nM", "quantity": "EC50", "value": "0.173 µM"}
{"Compound": "C=CC(=O)N1CCCC(n2c(=O)c3ncccc3n(Cc3ccc(Oc4ccccc4)cc3)c2=O)C1 (stereo not drawn)", "cell line": "HH", "assay": "cell growth or viability, MTT", "conditions": "72 h", "quantity": "IC50", "value": "15 µM"}
{"Compound": "CCCc1cc(=O)nc(SCC(=O)N(C)c2ccccc2)[nH]1", "cell line": "cells, COS-1, expressing proMMP-9", "assay": "cell migration, 2D collagen dot migration", "conditions": "50 µM, 18 h", "quantity": "inhibition", "value": "2 ± 6%"}
{"Compound": "C1=[N+]2CCCC[N+]3=Cc4ccc5[n]4[Au-]23[n]2c1ccc2-c1nc2ccccc2nc1-5.F[P-](F)(F)(F)(F)F", "cell line": "Malme-3M", "assay": "NCI60 five-dose screen", "quantity": "TGI", "value": "4 -log M"}
{"Compound": "CCN(CC)CC(=O)Nc1cccc(-n2cc(-c3ccc4ccc(-c5cn(-c6cccc(NC(=O)CN(CC)CC)c6)nn5)cc4c3)nn2)c1", "cell line": "RCC4", "assay": "PCR angiogenesis array, refers to: IL8", "conditions": "5 x IC50, 2 h, normoxia", "scale": "baseline: untreated", "quantity": "fold regulation", "value": -1.61}
{"Compound": "CCN(C(=O)c1cc(F)ccc1Oc1nncnc1N1CCC2(C1)CN([C@H](CCCN(C)CCOC)C(C)C)C2)C(C)C", "cell line": "NCI-H358M", "assay": "cell growth or viability", "conditions": "7 days", "quantity": "GI50", "value": "> 10 µM"}
{"Compound": "CC(=O)Oc1ccccc1C(=O)[Se]CC(=O)Nc1cccc(C(F)(F)F)c1", "cell line": "NCI60 colon subpanel", "assay": "NCI60 five-dose screen", "quantity": "mean TGI", "value": "12.2 µM"}
{"Compound": "COc1ccccc1-c1ccncc1C(=O)Nc1nnc(OCc2ccc(Cl)cc2)s1", "cell line": "Brca1 Δ11/Δ11 MEFs with sgGFP", "conditions": "5 µM, 500 cells/well", "quantity": "colony survival", "value": "58.1% and 109% and 67.5%"}
{"Compound": "COc1cccc(OC)c1-c1cc(C(=O)NC2(C(=O)O)C3CC4CC(C3)CC2C4)nn1-c1ccc(C(=O)N(C)CCOCCN(C)C(=O)[C@H](CCCCNC(=O)[C@H](CC(C)C)NC(=O)C2OC2C(=O)O)NC(=O)CN2CCN(CC(=O)[O-])CCN(CC(=O)[O-])CCN(CC(=O)[O-])CC2)cc1C(C)C.[177Lu+3] (mixture of isomers)", "cell line": "HT-29", "conditions": "concentration not given, 240 min", "scale": "baseline: added activity", "quantity": "surface-bound fraction", "value": "3.49 ± 0.34%"}
{"Compound": "COC(=O)c1cc(NC2=NC(=O)C(=Cc3ccc(N(C)C)cc3)S2)ccc1OC(C)=O", "cell line": "MCF7", "assay": "refers to: RAD51AP1 mRNA", "conditions": "0.81 µM (IC50), 24 h", "scale": "baseline: DMSO", "quantity": "fold change", "value": 0.288}
{"Compound": "CC(C)Cc1ccc(C(C)C(=O)[Se]CC(=O)Nc2cccc(C(F)(F)F)c2)cc1 (stereo not drawn)", "cell line": "NCI60 colon subpanel", "assay": "cell growth", "conditions": "10 µM, 48 h, one-dose", "quantity": "mean growth percent", "value": "-46%"}
{"Compound": "Cn1ncc2cc(-c3cncc(Cl)c3N3CCC4(CCNC4=O)CC3)ccc21", "cell line": "LS174T", "assay": "gene expression, microarray, refers to: CMBL mRNA", "conditions": "concentration not given, 24 h", "scale": "baseline: untreated cells", "quantity": "log2 fold change", "value": 2.81}
{"note": "Some of these lines once more:"}
{"Compound": "CC(C)Cc1ccc(C(C)C(=O)[Se]CC(=O)Nc2cccc(C(F)(F)F)c2)cc1 (stereo not drawn)", "cell line": "NCI60 colon subpanel", "assay": "cell growth", "conditions": "10 µM, 48 h, one-dose", "quantity": "mean growth percent", "value": "-46%"}
{"Compound": "CN1CCCNC(=O)c2cccc(c2)C(=O)NCCCN(C)CCCNc2cccc3c2C(=O)c2cccc(c2C3=O)NCCC1", "cell line": "SAS", "assay": "RNA-Seq, refers to: CBX5 mRNA", "conditions": "1 µM, 6 h", "scale": "baseline: untreated cells", "quantity": "log2 fold change", "value": 0.637}
{"Compound": "CCCc1cc(=O)nc(SCC(=O)N(C)c2ccccc2)[nH]1", "cell line": "cells, COS-1, expressing proMMP-9", "assay": "cell migration, 2D collagen dot migration", "conditions": "50 µM, 18 h", "quantity": "inhibition", "value": "2 ± 6%"}
{"Compound": "O=C(O)C1OC(Oc2c(-c3ccc(O)cc3)oc3cc(O)ccc3c2=O)C(O)C(O)C1O (stereo not drawn)", "cell line": "MDCKII-UGT1A1/MRP2 cells", "assay": "glucuronide efflux, substrate", "quantity": "Jmax", "value": "4.8 ± 1.4 pmol/mg/min"}
{"Compound": "O=C(N1CCCC1)n1cc(-c2ccc(-c3ccccc3)cc2)nn1", "cell line": "mouse T cells", "assay": "N-terminal labelling proteomics, refers to: LARP1 N-terminal peptides", "conditions": "0.001 µM, 6 h", "scale": "baseline: DMSO", "quantity": "SILAC ratio", "value": 1.21}
